Experimental data gathered from unrelated publications.
± gives the spread as reported.
Organism: Zika virus

SMILES | test | test system | conditions | scale | quantity | value
NCC(=O)NCC(=O)N1Cc2cc(Cl)ccc2CC1c1ccccc1 (stereo not drawn) | viral replication | Vero 76, Cal PL | 72 h | – | EC50 | > 50 µM
CC(=O)c1cc(O)c2ccccc2c1O | viral replication | – | – | – | EC50 | 0.9 µM
O=c1c(O)c(-c2ccc(O)c(O)c2)oc2cc(O)cc(O)c12 | viral replication, plaque | MR766, culture supernatant | 500 µM, 48 h p.i. | – | viral load | decreased
C#C[C@@]1(O)[C@H](O)[C@@H](CO)O[C@H]1n1ccc2c(N)ncnc21 | viral replication | Huh-7.5.1, nanoluciferase reporter | 48 h | – | EC50 | 0.494 µM
Nc1ncnc2c1ncn2[C@@H]1O[C@@H]2COP(=O)(O)O[C@H]3[C@@H](O)[C@H](n4cnc5c(=O)[nH]cnc54)O[C@@H]3COP(=O)(O)O[C@H]2[C@H]1O | upregulated Reactome pathway, RNA sequencing, item: Interferon gamma signaling (R-HSA-877300) | HFF-1 | – | reference: ZIKV-infected untreated | fold enrichment | 10.9
N#Cc1c(Nc2ccc(F)cc2)n[nH]c1NS(=O)(=O)c1ccc2ccccc2c1 | viral replication | Vero 76, MR766 | – | – | EC50 | > 2.5 µM
NC(=O)c1ncn([C@@H]2O[C@H](CO)[C@@H](O)[C@H]2O)n1 | viral replication, CCK-8 | Vero C1008 | 10 µM, 96 h | – | inhibition | 37.1 ± 8.76%
NC(=O)c1nc(F)c[nH]c1=O | viral replication | BHK-21, ZIKV | 72 h | – | EC50 | 39 µM
N#C[C@@]1(n2ccc(N)nc2=O)O[C@H](CO)[C@@H](O)[C@H]1O | viral replication, cell-based | – | – | – | EC50 | > 20 µM

Excerpt of the above:
SMILES | test | test system | conditions | scale | quantity | value
CC(=O)c1cc(O)c2ccccc2c1O | viral replication | – | – | – | EC50 | 0.9 µM
